Experimental data gathered from unrelated publications.
Numbered parts are unrelated; each lists some results of a single study.

Set 1
Target: RING finger protein unkempt homolog, zinc fingers 1-6, GST-SBP tag (UNK, Homo sapiens, UniProt Q9C0B0, residues 30-357)
Chain of UniProt Q9C0B0 (30-357, looked up): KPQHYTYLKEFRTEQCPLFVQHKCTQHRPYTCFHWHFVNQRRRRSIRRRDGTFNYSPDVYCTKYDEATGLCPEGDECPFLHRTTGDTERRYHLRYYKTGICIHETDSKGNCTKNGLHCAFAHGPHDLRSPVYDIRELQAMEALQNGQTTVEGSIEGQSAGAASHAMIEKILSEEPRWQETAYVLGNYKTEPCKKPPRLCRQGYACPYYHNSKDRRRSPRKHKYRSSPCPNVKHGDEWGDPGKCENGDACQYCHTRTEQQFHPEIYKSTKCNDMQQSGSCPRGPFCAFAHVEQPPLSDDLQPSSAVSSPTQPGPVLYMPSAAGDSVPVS
Technique: RNA Bind-n-Seq
Molecule type: RNA
Sample: in vitro
Concentration: not given
Notes: RNA with constant flanks, human-mouse chimeric sites, ends assumed
Relative to: input RNA pool
Reading: higher = stronger binding
All sequences stand within: GGGAGUUCUACAGUCCGACGAUC … CAACAGAGGAUUGAGCAUCA
| Sequence | bound/input enrichment |
| --- | --- |
| AGAAUCUUGGGACUGUUUUACUUAAUUGGUCAUUGAUAUCUCAACAAACAUGGAGAUAAGAUUAGAAAUCUUGACAUCAACAGGUAUUAAGCAGAAAAAACCAUGGCCACGUGUCUCCUG | 0.132 ratio |
| UUAAUCCCCUUUACUGCUCCCCCACUUGUCAUGCUGAUAACAAAGUCUUAUAUCCCCAUAUUAGCUUUCACUCAGAUGGCUUAUGGAGCCGGUUUCCUAGCUUUCUUGGGAGGGAUCAGA | 0.209 ratio |
| AAAGAGUGGAUAGAGUGUGCACACGGGAUCGGUGGGACCCGGGCGAAAAAGGAGUGCAAGAUAGAGUUCGAUGACUUCGUAGAGUGUUUGCUUCGGUACAAAACGAUGAGGCGAAUGCAU | 0.387 ratio |
| AACAGAUUGUCUUUAAGCAUUCCAAGCGAGAAUGCUGGGGUGAUCAUUGUUGCCCAUGUGCCUUCUGACUGAGCUUUUAAUUAAUUGCAUGUUACAUUGAUGUUCUUCUCCAGAAUUGUU | 0.267 ratio |
| AAAUCAUGUGUGUCCAAUAUUGAAAGUGCUUUAUCUACACUCCAGUAUGUAAGCAGUAUAGUAGUUUCUUUAGAGAAUAGGUCAGCCAUUGUAAAGUAUAAUGCAAGCUUAGUCACUCCA | 4.95 ratio |
| UUUCUACUGCAGCAAACGAUGCUAAGAAUUAAGGAUCCUAAGAAGUCCCUGGAUUUUUAUACGAGGGUUCUUGGACUGACGCUAAUCCAAAAAUGUGACUUCCCUGCUAUGAAGUUCUCG | 0.141 ratio |
| UACUACUAUGAUGGUGAUAUUGGCAAUUAUUAUUAUGGCCAGGGUCAUCCCAUGAAGCCUCAUAGAAUCCGCAUGACUCAUAACUUGCUGUUAAAUUAUGGUUUAUACCGAAAAAUGGAA | 0.147 ratio |

Set 2
Target: RNA binding protein fox-1 homolog 2, RRM domain, GST-SBP tag (RBFOX2, Homo sapiens, UniProt O43251-10, residues 100-194)
Technique: RNA Bind-n-Seq
Molecule type: RNA
Sample: in vitro
Concentration: 365 nM
Notes: natural RNA segment, single round, ends assumed
Relative to: no-protein control
Reading: higher = stronger binding
All sequences stand within: GGGAGUUCUACAGUCCGACGAUC … UGGAAUUCUCGGGUGCCAA
Residues (chain): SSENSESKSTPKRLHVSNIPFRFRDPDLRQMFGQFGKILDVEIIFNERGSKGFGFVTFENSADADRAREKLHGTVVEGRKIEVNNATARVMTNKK
| Sequence | RBNS enrichment (R) |
| --- | --- |
| GAGCCCAAUCUCAGGGCAGACAUUGCCAAGGUAAAGAAUGCACUCCAUGUUUAUACCAAAUUGCACAAAGUAUAGACAUUGAGGUUAAUGGAGAUUUAAGCACAAUCCUA | 4.39 |
| CCCCAGAAACAUGACCUCCCACUGCAGGGUGUUGAAGGCCGAGCCCUCCCUCCGCUGAGCAUGUGAUGUCACCCCCUCUGUUUGGAGCUUCUUUAGGUCAAAGAAAUCAA | 5.04 |
| AAGAGUUUUGUUAGAGACAAGCAAUCUGUAAUCCCUCACCUGAAGACCGCAGACUGCAGCUCUGUCAUGCGAGGAAGCGCUCAAGUGUCCUGUGCGAACCCCUCGCCUCU | 0.337 |
| CAGCUUGUCUGGGCCCUGCCCAAGUUCCGCCAGGGAACCCAGCCCCAGCUCAAGUGCCGCCCCCUCACCGCCAAUUCUCAACUGGUUGCCGUGUACACUGAUUACAUUUC | 0.409 |
| GUGCCUGGAAGGCUUCCAGCCAAAACCAGUAAUUCCCUGCUUUCUUGUAUACAGAGUGUUCACUGCUAUUUCAGAUCUUGGUGAGUGUUCCAGUAACCAAGCCAGUCCCC | 0.231 |
| CCUCCUGGCUUUCGUGGCCAUCUUUGUCCAUCUUAGGUGGGGACUUGAUCUUAUUUAAGGUCUCCAAAUAGCCCCCACCACACUUAGAACGUGUGUUUUCUUAGUGUUAG | 0.255 |

Set 3
Target: Interferon regulatory factor 7, full length, phosphomimetic (IRF7, Homo sapiens, UniProt Q92985, residues 1-503, S101K/S471D/S472D/S475D/S476D/S477D/S483D/S484D/S487D)
Technique: protein-binding microarray
Molecule type: double-stranded DNA, one strand shown
Sample: in vitro
Concentration: 250 nM
Notes: 60-bp whole probe
With: salmon DNA 0.4 mg/ml
Relative to: random background probes
Reading: higher = stronger binding
All sequences stand within: GCCTAGCAC … GTCTTGATTCGCTTGACGCTGCTG
Target sequence (chain): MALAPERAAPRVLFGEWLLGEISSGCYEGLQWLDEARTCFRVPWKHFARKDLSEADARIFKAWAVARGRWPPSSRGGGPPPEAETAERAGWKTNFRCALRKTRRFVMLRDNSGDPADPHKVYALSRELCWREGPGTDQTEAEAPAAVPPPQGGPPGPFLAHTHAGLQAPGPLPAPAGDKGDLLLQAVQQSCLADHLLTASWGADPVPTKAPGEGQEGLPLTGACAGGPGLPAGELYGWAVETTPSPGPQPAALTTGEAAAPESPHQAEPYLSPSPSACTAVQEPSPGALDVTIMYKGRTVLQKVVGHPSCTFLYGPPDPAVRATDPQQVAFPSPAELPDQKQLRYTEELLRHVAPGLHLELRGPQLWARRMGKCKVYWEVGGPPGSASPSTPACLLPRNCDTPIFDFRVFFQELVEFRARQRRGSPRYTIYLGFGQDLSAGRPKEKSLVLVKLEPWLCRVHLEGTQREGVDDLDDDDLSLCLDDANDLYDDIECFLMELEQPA
| Sequence | log fluorescence [z-score] |
| --- | --- |
| GACGATTTCGGGTATGGAGACGTGCTA | 0.479 |
| GACGGTTTCGGTACTGGGGACGTGCTA | 6.21 |
| TTAGGTATCAACTATCGGTTAGTGCTA | 0.00674 |
| GACGATTCCAGTTTCGAGCCGTGCTAG | 2.49 |
| TTAGAACTAAGTCTCGATTAGTGCTAG | 1.99 |
| GACGGTATCCTACTGCTGAGGTGCTAG | 0.00891 |
| ATAGATTCCAGTTTCGATTAGTGCTAG | 9.81 |
| GACGATCTAAGACTGGAGACGTGCTAG | -0.248 |

Single results of other studies
| Substance | target | assay | system | conditions | scale | endpoint | value |
| --- | --- | --- | --- | --- | --- | --- | --- |
| PhoQ, residues 284 288 289 292 302 303 TTSMTC | PhoP, residues 12 14 15 18 19 LHSVQ (Escherichia coli, UniProt P23836) | Sort-seq, refers to: YFP reporter | E. coli | PhoQ-PhoP variant library, with: 10 µM Mg2+ | relative to: high Mg2+ state, higher = stronger signaling | fold induction | 6.55 |

Some of these lines once more (set 1):
| Sequence | bound/input enrichment |
| --- | --- |
| UUAAUCCCCUUUACUGCUCCCCCACUUGUCAUGCUGAUAACAAAGUCUUAUAUCCCCAUAUUAGCUUUCACUCAGAUGGCUUAUGGAGCCGGUUUCCUAGCUUUCUUGGGAGGGAUCAGA | 0.209 ratio |
| AAAGAGUGGAUAGAGUGUGCACACGGGAUCGGUGGGACCCGGGCGAAAAAGGAGUGCAAGAUAGAGUUCGAUGACUUCGUAGAGUGUUUGCUUCGGUACAAAACGAUGAGGCGAAUGCAU | 0.387 ratio |
| AACAGAUUGUCUUUAAGCAUUCCAAGCGAGAAUGCUGGGGUGAUCAUUGUUGCCCAUGUGCCUUCUGACUGAGCUUUUAAUUAAUUGCAUGUUACAUUGAUGUUCUUCUCCAGAAUUGUU | 0.267 ratio |
| AAAUCAUGUGUGUCCAAUAUUGAAAGUGCUUUAUCUACACUCCAGUAUGUAAGCAGUAUAGUAGUUUCUUUAGAGAAUAGGUCAGCCAUUGUAAAGUAUAAUGCAAGCUUAGUCACUCCA | 4.95 ratio |
